Results pooled from the literature.
Each line is one published result; not all experiments were run side by side. Numbers after ± are the reported error.

COc1ccc(CCNc2cc(-c3ccccc3)nc3ncnn23)cc1
half-life (mouse liver microsomes): 0.122 h

CC(C)(C)C(=O)OCOP(=O)(OCOC(=O)C(C)(C)C)C1CCCN(O)C1=O (centres unmarked)
half-life (mouse plasma; ex vivo): ~0.00833 h

CC[C@H](C)[C@@H]1NC(=O)[C@H](CC(N)=O)NC(=O)[C@@H]2CCCN2C(=O)[C@@H](NC(=O)[C@H](CC(N)=O)NC(=O)[C@@H](N)CCC(N)=O)COC(=O)[C@H](CCSC)NC(=O)[C@H](Cc2c[nH]c3ccccc23)NC(=O)[C@H](CCC(N)=O)NC(=O)CNC(=O)[C@H](Cc2ccccc2)N(C)C1=O
half-life (human plasma diluted with PBS; 0.28 mM, pH 7.2, 37 °C): < 0.5 h

CC(COC(=O)c1ccccc1)OC(=O)C(N)C(C)C (mixture of isomers)
half-life (isotonic buffer; pH 6.0, 37 °C): > 30 h

CC(C)C[C@@H]1NC(=O)Cc2ccc(nc2)-c2ccc(nc2)CSC[C@@H](C(=O)NCC(N)=O)NC(=O)CNC(=O)[C@@H]2CCCN2C(=O)[C@H](CCCCN)NC(=O)[C@H](CC(C)C)NC(=O)[C@@H]2CCCN2C(=O)[C@H](Cc2c[nH]cn2)NC(=O)[C@H](CC(C)C)NC(=O)[C@H](CCC(=O)O)NC(=O)[C@H](CS)NC(=O)[C@H](Cc2ccc(O)cc2)NC(=O)[C@H](CCCCN)NC(=O)[C@H](CCC(N)=O)NC(=O)[C@H](C(C)C)NC1=O
half-life (human serum; 10 µM, 37 °C): 30 h

O=C(Cc1ccc2ccccc2c1)N[C@H](Cc1ccccc1)C(=O)N[C@H](Cc1ccc(OP(=O)(O)O)cc1)C(=O)N[C@H](Cc1ccccc1)C(=O)N[C@H](Cc1ccc(OP(=O)(O)O)cc1)C(=O)O
half-life (substrate; HepG2 cell lysate; 500 µM, pH 7.4, 37 °C): > 15 h

C=CCc1ccc(OC(=O)COC(=O)Cn2cnc3c2c(=O)n(C)c(=O)n3C)c(OC)c1
half-life (0.1 M HCl; 75 µM, pH 1.4, 37 °C, simulated gastric conditions): 35 h

Cc1ccc2nc(C)c(C(=O)NCc3ccc(C(F)(F)F)cc3)n2c1
half-life (human liver microsomes; 2 µM): 0.5 h

CSCC[C@H](NC(=O)CNC(=O)CNC(=O)[C@H](CO)NC(=O)[C@H](CC(C)C)NC(=O)[C@@H]1CCCN1C(=O)[C@H](CO)NC(=O)[C@H](CC(N)=O)NC(=O)[C@H](CC(C)C)NC(=O)[C@H](C)NC(=O)[C@@H](NC(=O)[C@H](CC(C)C)NC(=O)[C@H](Cc1c[nH]cn1)NC(=O)[C@H](CC(C)C)NC(=O)[C@@H](NC(=O)[C@@H]1CCCN1C(=O)[C@H](CCC(N)=O)NC(=O)[C@H](Cc1ccccc1)NC(=O)[C@H](CC(=O)O)NC(=O)[C@H](CCCNC(=N)N)NC(=O)[C@H](Cc1c[nH]cn1)NC(=O)[C@H](CO)NC(=O)[C@H](Cc1c[nH]cn1)NC(=O)[C@H](CCSC)NC(=O)[C@H](CC(=O)O)NC(=O)CNC(=O)[C@H](CCCNC(=N)N)NC(=O)[C@H](CC(=O)O)NC(=O)CNC(=O)[C@@H](N)CCCNC(=N)N)C(C)C)C(C)C)C(N)=O
half-life (metabolic stability; human whole blood; 20 µg/mL, 37 °C): 0.232 ± 0.00875 h

Cc1cccc(-c2nc(Nc3ccncn3)c3c(C)csc3n2)n1
half-life (mouse liver microsomes): < 0.05 h

COc1ccc(Cn2cnc3cc(C)c(C)cc32)cc1
half-life (mouse liver microsomes): < 0.0333 h

C[C@]12C(=O)[C@](C)(C(c3ccccc3)=C1c1ccccc1)C1(Br)C(=O)N(CCN)C(=O)C12 (some centres unmarked)
half-life (CO release, HPLC; TRIS-sucrose buffer; pH 7.4, 37 °C): 0.317 h

C#Cc1c(F)ccc2cc(O)cc(-c3ncc4c(N5CC6CCC(C5)N6C(=O)/C(C)=C(/C)C(=O)OCCCC)nc(OC[C@@]56CCCN5C[C@H](F)C6)nc4c3F)c12
half-life (refers to: prodrug disappearance; mouse whole blood; 60 min): stable

CCCCCCCC(=O)OC[C@H](NC(=O)[C@H](CO)NC(=O)CN)C(=O)N[C@@H](Cc1ccccc1)C(=O)N[C@@H](CC(C)C)C(=O)N[C@@H](CO)C(=O)N1CCC[C@H]1C(=O)N[C@@H](CCC(=O)O)C(=O)N[C@@H](Cc1cnc[nH]1)C(=O)N[C@@H](CCC(N)=O)C(=O)N[C@@H](CCCNC(=N)N)C(=O)N[C@H](C(=O)N[C@@H](CCC(N)=O)C(=O)N[C@@H](CCC(N)=O)C(=O)N[C@@H](CCCNC(=N)N)C(=O)N[C@@H](CCCCN)C(=O)N[C@@H](CCC(=O)O)C(=O)N[C@@H](CO)C(=O)N[C@@H](CCCCN)C(=O)N[C@@H](CCCCN)C(=O)N1CCC[C@H]1C(=O)N1CCC[C@H]1C(=O)N[C@@H](C)C(=O)N[C@@H](CCCCN)C(=O)N[C@@H](CC(C)C)C(=O)N[C@@H](CCC(N)=O)C(=O)N1CCC[C@H]1C(=O)N[C@@H](CCCNC(=N)N)C(=O)O)C(C)C
half-life (two-site ELISA; healthy men and women, plasma; continuous intravenous infusion, 5 µg/kg/h, 65 min infusion): 0.15 ± 0.0333 h

CC(C)C(N)C(=O)NC(C(=O)OCC(=O)C1(O)CCC2C3CCC4=CC(=O)C=CC4(C)C3C(O)CC21C)C(C)C (centres unmarked)
half-life (SIRC cell homogenate; pH 7.4, 37 °C): 19 ± 2 h

O=P([O-])([O-])Oc1ccc(-c2cc(=S)ss2)cc1.[Na+].[Na+]
half-life (0.9% NaCl solution; pH 7.4, 37 °C): stable

N#Cc1ccc(NC(=O)c2cccnc2)cc1Cl
half-life (buffer; 5 µM, pH 10.0, 37 °C): 0.653 ± 0.145 h

Cc1ccc(OCCN(C)C)cc1C(=O)N[C@H](C)c1cc(-c2cnn(C)c2)cc(-c2cnn(C3CC3)c2)c1
half-life (mouse liver microsomes): 1.93 h

CC[C@H](C)[C@@H]1NC(=O)[C@H](Cc2ccc(O)cc2)NC(=O)[C@@H](N)CSCSC[C@@H](C(=O)N2CCC[C@H]2C(=O)N[C@@H](CC(C)C)C(=O)NCC(N)=O)NC(=O)[C@H](CC(N)=O)NC(=O)[C@H](CCC(N)=O)NC1=O
half-life (phosphate buffer; 0.1 mg/mL, pH 9.0, 55 °C): 72 h

[CH3][Ti+2][O]C(=O)c1ccc([S][Au][PH](c2ccccc2)(c2ccccc2)c2ccccc2)cc1.c1cc[cH-]c1.c1cc[cH-]c1
half-life (NMR; DMSO-d6): 8 h

CC(C)[C@H](N)C(=O)OCOC(=O)c1ccccc1.O=C(O)C(F)(F)F
half-life (isotonic buffer; pH 4.0, 37 °C): 21.8 h

Cc1ccc(OCCN(C)C)cc1C(=O)N[C@H](C)c1cc(-c2cnn(C)c2)cc(-c2cnn(C(C)C)c2)c1
half-life (mouse liver microsomes): 1.33 h

CC(COC(=O)c1ccccc1)OC(=O)C(N)Cc1ccccc1 (mixture of isomers)
half-life (rat intestinal homogenate; 37 °C): < 1 h

CC(C)(N)CNC(=O)O[C@H]1CCCC2(C1)OOC1(O2)C2CC3CC(C2)CC1C3 (some centres unmarked)
half-life (human liver microsomes): > 2 h

CSCC[C@H](NC(=O)[C@@H]1CSSC[C@H](NC(=O)[C@H](CCCCN)NC(=O)[C@H](Cc2ccc(O)cc2)NC(=O)CNC(=O)[C@@H](N)CC(C(=O)O)C(=O)O)C(=O)N[C@@H](C(C)C)C(=O)N[C@H](Cc2c[nH]c3ccccc23)C(=O)N[C@@H](CCCCN)C(=O)N[C@@H]([C@@H](C)O)C(=O)N1)C(=O)N1C[C@H](O)C[C@H]1C(=O)N[C@@H](C)C(=O)O
half-life (human plasma; 3 µM, 37 °C): > 158 h

CCc1ccc([C@@H]2C[C@H](C(F)(F)F)n3ncc(C(=O)NCc4ccc(OC)cc4)c3N2)cc1
half-life (human liver microsomes): > 0.5 h

CC(=O)N[C@@H](Cc1ccc(O)cc1)C(=O)N[C@@H](CCCNC(=N)N)C(=O)N[C@@H](Cc1ccccc1)C(=O)N[C@@H](C)C(=O)N[C@@H](CCCNC(=N)N)C(=O)N[C@@H](CC(N)=O)C(=O)N[C@@H](C)C(=O)N[C@H](C(=O)N[C@@H](Cc1ccccc1)C(=O)N[C@@H](C)C(=O)N[C@@H](Cc1ccccc1)C(=O)N[C@@H](Cc1ccc(O)cc1)C(=O)N[C@@H](C)C(=O)N[C@H](C(=O)N[C@@H](CC(=O)O)C(N)=O)[C@@H](C)O)C(C)C
half-life (LC-MS; human serum; 10 µM, 37 °C): < 0.167 h

COc1ccc2nc(C)cc(OCC(=O)Nc3ccccc3OC)c2c1
half-life (mouse liver microsomes): < 0.05 h

CCCCCc1cc(OC(=O)C(NC(=O)CCC(=O)O)C(C)C)c2c(c1)OC(C)(C)C1CCC(C)=CC21 (centres unmarked)
half-life (Cremophor RH 40 in isotonic phosphate buffer; pH 7.3, 40 °C): 1420 h

Excerpt of the above:
Cc1ccc(OCCN(C)C)cc1C(=O)N[C@H](C)c1cc(-c2cnn(C)c2)cc(-c2cnn(C(C)C)c2)c1
half-life (mouse liver microsomes): 1.33 h

CC(COC(=O)c1ccccc1)OC(=O)C(N)Cc1ccccc1 (mixture of isomers)
half-life (rat intestinal homogenate; 37 °C): < 1 h
